Results from different studies.
Protocols differ between the studies behind these lines.
Target: Acetylcholinesterase (ACHE, Homo sapiens, UniProt P22303)
Sequence of UniProt P22303 (whole entry, looked up): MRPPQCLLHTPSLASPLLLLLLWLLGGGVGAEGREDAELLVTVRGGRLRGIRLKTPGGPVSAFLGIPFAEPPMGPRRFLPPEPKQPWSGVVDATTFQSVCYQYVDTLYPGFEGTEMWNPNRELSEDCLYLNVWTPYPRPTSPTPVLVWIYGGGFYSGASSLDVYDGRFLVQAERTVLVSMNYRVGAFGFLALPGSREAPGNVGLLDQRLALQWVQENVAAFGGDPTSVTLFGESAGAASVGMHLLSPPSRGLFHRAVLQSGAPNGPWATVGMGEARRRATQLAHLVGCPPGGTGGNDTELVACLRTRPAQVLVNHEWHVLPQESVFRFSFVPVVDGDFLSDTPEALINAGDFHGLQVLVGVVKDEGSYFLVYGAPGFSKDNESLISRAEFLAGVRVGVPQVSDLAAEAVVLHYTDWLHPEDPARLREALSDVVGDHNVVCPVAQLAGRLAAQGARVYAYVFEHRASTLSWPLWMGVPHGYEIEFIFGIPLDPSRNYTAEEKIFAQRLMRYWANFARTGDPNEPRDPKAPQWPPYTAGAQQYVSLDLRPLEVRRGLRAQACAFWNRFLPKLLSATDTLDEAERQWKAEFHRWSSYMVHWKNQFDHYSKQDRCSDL

| SMILES | test | system | conditions | inhibition [%] |
| --- | --- | --- | --- | --- |
| O=C(NCC1CCc2nccn2C1)c1cnc2ccccn12 (stereo not drawn) | enzyme activity, inhibitor, Ellman | – | 10 µM | 27.8 |
| COc1ncc2nc(C)n(Cc3ncc(S(N)(=O)=O)cc3F)c2c1-c1ccccc1 | enzyme activity, inhibitor | – | 10 µM, safety panel | -3.72 |
| CCCCNC(=O)c1ccc2nc(CC)c(N(C)Cc3ccc(OC)cc3)n2c1 | enzyme activity, inhibitor | SH-SY5Y | IC50 concentration | 61 |
| CS(C)(=O)=Nc1ccc(-c2ccc(-c3nc4cc(O[C@@H]5CO[C@H]6[C@@H]5OC[C@H]6O)[nH]c4cc3F)cc2)cc1 | enzyme activity, inhibitor | – | 10 µM | -5 |
| C[C@H](NCc1ccc(-c2ccc(C(F)(F)F)cc2)cc1)C(N)=O | enzyme activity | – | 1 µM, added: 700 µM acetylthiocholine | 27 |
| Cc1ccccc1C=Cc1nnc([C@H]2OCC[C@H]2Cn2ccnc2)o1 | enzyme activity, inhibitor, Ellman | – | 10 µM | 2.8 |
| Cc1ccc2c(n1)c(-c1cccc(S(C)(=O)=O)c1)c(C)n2C/C(F)=C/CN | cell-free assay | – | 10 µM | -16 |
| Cc1ccccc1CCc1nnc([C@H]2OCC[C@H]2Cn2ccnc2)o1 | enzyme activity, inhibitor, Ellman | – | 10 µM | 24.5 |
| O=C(Nc1cccnc1)c1cccc(C2(CNCc3ccc(F)c(F)c3)CC2)c1 | enzyme activity, inhibitor | SH-SY5Y | concentration not given | 20 |
| CC(NC(=O)c1ccccc1F)c1nnc2ccccn12 (stereo not drawn) | enzyme activity, inhibitor, Ellman | – | 10 µM | 7.6 |
| Cc1cc(Nc2nc(C[C@@]3(C(=O)O)CCN(Cc4cccc(Cl)c4F)[C@H](C)C3)cc(C)c2F)[nH]n1 | enzyme activity, inhibitor | – | 10 µM | 20.8 |
| Cc1cc(-c2ccc3ccccc3c2)nnc1NCCN1CCN(C)CC1 | enzyme activity, inhibitor | – | 10000 nM | 33 |

For quick reference, copied from above:
| SMILES | test | system | conditions | inhibition [%] |
| --- | --- | --- | --- | --- |
| O=C(Nc1cccnc1)c1cccc(C2(CNCc3ccc(F)c(F)c3)CC2)c1 | enzyme activity, inhibitor | SH-SY5Y | concentration not given | 20 |
| CS(C)(=O)=Nc1ccc(-c2ccc(-c3nc4cc(O[C@@H]5CO[C@H]6[C@@H]5OC[C@H]6O)[nH]c4cc3F)cc2)cc1 | enzyme activity, inhibitor | – | 10 µM | -5 |
